Experimental data of several laboratories.
Numbered parts are unrelated; each lists some results of a single study. Changes are numbered by the printed parent chain.

Study 1 — target: CCNE1, cyclin fold, Cln2 fusion (human); technique: yeast growth competition, sequencing; sample: yeast; notes: strong parent motif; baseline: not given; reading: higher = stronger binding
Starting sequence: viral docking peptide; KGVKRKLFAEDSS; partner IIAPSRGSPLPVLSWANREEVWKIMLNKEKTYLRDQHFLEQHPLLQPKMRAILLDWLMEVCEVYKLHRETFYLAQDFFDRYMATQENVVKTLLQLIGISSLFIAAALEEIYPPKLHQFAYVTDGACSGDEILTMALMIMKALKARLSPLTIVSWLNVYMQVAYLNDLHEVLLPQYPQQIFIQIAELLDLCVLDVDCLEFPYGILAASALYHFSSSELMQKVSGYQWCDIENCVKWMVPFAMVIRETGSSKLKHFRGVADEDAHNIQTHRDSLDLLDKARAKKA
| Substitution | normalised enrichment score |
| --- | --- |
| F8K | 0.311 |
| R5M | 0.798 |
| V3F | 7.14 |
| E10R | 5.12 |
| E10M | 6.94 |
| K4E | 1.99 |
| A9H | 7.13 |
| F8P | 0.133 |

Study 2 — read-out: binding; technique: phage display NGS; molecule type: peptide; tested at: concentration not given; baseline: input library
Target: UDP-N-acetylglucosamine--peptide N-acetylglucosaminyltransferase 110 kDa subunit (OGT, Homo sapiens, UniProt O15294)
Construct (O15294 1-1046): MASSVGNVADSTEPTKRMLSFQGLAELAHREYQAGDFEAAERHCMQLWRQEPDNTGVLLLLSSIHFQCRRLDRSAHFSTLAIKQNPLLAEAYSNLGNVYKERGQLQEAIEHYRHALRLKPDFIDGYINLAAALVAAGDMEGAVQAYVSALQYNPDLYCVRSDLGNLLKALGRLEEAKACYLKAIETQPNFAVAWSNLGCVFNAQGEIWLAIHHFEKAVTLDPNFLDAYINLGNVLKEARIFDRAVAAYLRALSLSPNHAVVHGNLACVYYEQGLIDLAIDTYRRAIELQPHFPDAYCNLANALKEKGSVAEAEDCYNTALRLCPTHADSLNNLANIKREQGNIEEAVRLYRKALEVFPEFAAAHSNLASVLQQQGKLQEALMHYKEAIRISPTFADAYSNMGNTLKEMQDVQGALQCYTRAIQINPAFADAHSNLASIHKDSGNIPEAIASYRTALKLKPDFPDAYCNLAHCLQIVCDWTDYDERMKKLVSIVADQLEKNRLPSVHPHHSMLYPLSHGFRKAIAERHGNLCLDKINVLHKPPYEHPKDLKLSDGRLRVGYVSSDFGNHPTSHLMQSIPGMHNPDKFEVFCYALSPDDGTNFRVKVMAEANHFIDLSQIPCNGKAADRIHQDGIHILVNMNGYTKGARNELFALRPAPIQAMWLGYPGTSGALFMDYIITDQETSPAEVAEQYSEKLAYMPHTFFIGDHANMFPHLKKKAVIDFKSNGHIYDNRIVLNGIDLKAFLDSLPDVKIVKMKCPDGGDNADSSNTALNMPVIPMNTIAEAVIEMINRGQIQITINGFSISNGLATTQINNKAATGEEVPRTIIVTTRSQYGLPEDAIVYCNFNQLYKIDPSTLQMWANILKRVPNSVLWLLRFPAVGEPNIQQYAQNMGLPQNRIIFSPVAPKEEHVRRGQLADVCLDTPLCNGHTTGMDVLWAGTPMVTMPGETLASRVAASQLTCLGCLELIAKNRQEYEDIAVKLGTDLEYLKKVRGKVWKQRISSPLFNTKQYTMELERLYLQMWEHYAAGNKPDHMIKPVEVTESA
| Molecule | enrichment fold change |
| --- | --- |
| QYLPQYQILPVIYSS | 2.32 |
| HERHHYVRYQNAGQD | 2.44 |
| HLEQHMHHMIHKYAN | 3.21 |
| THQHAHHVYSIDPSG | 4.02 |
| HNVEPMHHNHSARPY | 7.59 |
| HGIMQEDHGGTHHHY | 3.08 |
| HQQHSMHFKWNIIQA | 3.76 |
| NWYVSDHTDNHHSMA | 5.62 |

Study 3 — target: tungstate, free oxyanion; technique: microfluidic competitive inhibition; sample: in vitro, cell-free expressed; tested at: not given; reading: lower = stronger binding
Notes: derived from inhibition constants, unchanged parent 2230 nM
Starting sequence: PafA, mature enzyme, eGFP fusion (Elizabethkingia meningoseptica, UniProt Q9KJX5); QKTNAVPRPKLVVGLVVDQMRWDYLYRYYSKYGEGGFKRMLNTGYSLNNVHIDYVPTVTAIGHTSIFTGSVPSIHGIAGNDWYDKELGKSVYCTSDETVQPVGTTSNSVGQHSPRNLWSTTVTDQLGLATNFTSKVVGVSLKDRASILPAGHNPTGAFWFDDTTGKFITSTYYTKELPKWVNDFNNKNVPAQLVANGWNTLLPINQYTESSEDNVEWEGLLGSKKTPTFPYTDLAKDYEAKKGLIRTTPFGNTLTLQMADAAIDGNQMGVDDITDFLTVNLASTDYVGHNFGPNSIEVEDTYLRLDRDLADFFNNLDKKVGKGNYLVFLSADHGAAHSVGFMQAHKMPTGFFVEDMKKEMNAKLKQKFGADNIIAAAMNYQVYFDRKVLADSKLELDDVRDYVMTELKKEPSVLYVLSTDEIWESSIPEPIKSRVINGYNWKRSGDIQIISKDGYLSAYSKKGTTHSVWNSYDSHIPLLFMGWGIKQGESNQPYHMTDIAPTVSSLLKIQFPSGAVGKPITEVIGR
| Substitution | oxyanion analog dissociation constant |
| --- | --- |
| F229G | 554 nM |
| S418G | 2.2 µM |
| N470V | 2.05 µM |
| H63V | 15.4 µM |
| N4G | 1.98 µM |
| Y238V | 2.31 µM |
| S412G | 2.92 µM |
| V99A | 1.93 µM |

Mixed results
| Structure (SMILES) | cell line | assay | test system | conditions | scale | quantity | result |
| --- | --- | --- | --- | --- | --- | --- | --- |
| C[C@]12CC[C@H]3[C@@H](CCC4=CC(=O)CC[C@@]43C)[C@@H]1CC[C@@H]2O | HEK-293T | pseudovirus infection, FDA-approved drug library counter-screen | VSV pseudotyped with VSV-G | 10 µM, 16 h | baseline: vehicle-treated | GFP-positive cells | 99.4% |

Some of these lines once more (study 3):
| Substitution | oxyanion analog dissociation constant |
| --- | --- |
| N470V | 2.05 µM |
| H63V | 15.4 µM |
| N4G | 1.98 µM |
| Y238V | 2.31 µM |
